{"data": "Results of several laboratories", "note": "Parts stem from different laboratories: compare values within a part only. Changes are numbered by the printed parent chain."}
{"data": "Study 1", "target": "CCNB3, cyclin fold, Cln2 fusion (human)", "technique": "yeast growth competition, sequencing", "matrix": "yeast", "setting": "weak parent motif", "reference": "not given", "direction": "higher = stronger binding", "parent": "WEE1 docking peptide (human); HKTFRKLRLFDTP"}
{"Substitution": "HKTFRKLHLFDTP [R8H]", "normalised enrichment score": 0.553}
{"Substitution": "HKTFRKLRLFDTR [P13R]", "normalised enrichment score": -0.105}
{"Substitution": "HKPFRKLRLFDTP [T3P]", "normalised enrichment score": 0.371}
{"Substitution": "HKTFRKLRLFDTA [P13A]", "normalised enrichment score": 0.209}
{"Substitution": "HKTFRKLRLQDTP [F10Q]", "normalised enrichment score": -0.454}
{"Substitution": "HKTFRLLRLFDTP [K6L]", "normalised enrichment score": -0.151}
{"Substitution": "HYTFRKLRLFDTP [K2Y]", "normalised enrichment score": -0.00528}
{"Substitution": "QKTFRKLRLFDTP [H1Q]", "normalised enrichment score": 0.048}
{"Substitution": "HKTFHKLRLFDTP [R5H]", "normalised enrichment score": 0.847}
{"Substitution": "HKTFRKLCLFDTP [R8C]", "normalised enrichment score": 0.67}
{"Substitution": "HKTFRKSRLFDTP [L7S]", "normalised enrichment score": -0.303}
{"Substitution": "HKTFRKLRQFDTP [L9Q]", "normalised enrichment score": 0.266}
{"Substitution": "HHTFRKLRLFDTP [K2H]", "normalised enrichment score": 0.0705}
{"Substitution": "HKTFRKLRLFDIP [T12I]", "normalised enrichment score": 0.648}
{"Substitution": "HKNFRKLRLFDTP [T3N]", "normalised enrichment score": -0.727}
{"Substitution": "HKTYRKLRLFDTP [F4Y]", "normalised enrichment score": 0.018}
{"Substitution": "HKTFRKWRLFDTP [L7W]", "normalised enrichment score": 0.284}
{"Substitution": "HKTFRKLRLFDTN [P13N]", "normalised enrichment score": 0.401}
{"Substitution": "HKTFRKLKLFDTP [R8K]", "normalised enrichment score": 0.39}
{"Substitution": "HFTFRKLRLFDTP [K2F]", "normalised enrichment score": -0.23}
{"Substitution": "HKTFRELRLFDTP [K6E]", "normalised enrichment score": 0.256}
{"Substitution": "HKTERKLRLFDTP [F4E]", "normalised enrichment score": -0.252}
{"data": "Study 2", "target": "ABI1, truncated, D143A, DHFR fusion (Arabidopsis thaliana)", "technique": "DHFR PCA, deep sequencing", "matrix": "yeast", "setting": "methotrexate growth selection, single substitutions", "with": "(+)-ABA 0 µM", "reference": "wild-type fitted maximum", "direction": "higher = stronger binding", "parent": "PYL1, truncated, DHFR fusion (Arabidopsis thaliana); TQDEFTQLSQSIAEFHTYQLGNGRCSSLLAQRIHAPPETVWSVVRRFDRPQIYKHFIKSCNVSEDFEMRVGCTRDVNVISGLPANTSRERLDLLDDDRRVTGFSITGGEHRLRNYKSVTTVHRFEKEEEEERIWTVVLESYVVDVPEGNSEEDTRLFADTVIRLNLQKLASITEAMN; partner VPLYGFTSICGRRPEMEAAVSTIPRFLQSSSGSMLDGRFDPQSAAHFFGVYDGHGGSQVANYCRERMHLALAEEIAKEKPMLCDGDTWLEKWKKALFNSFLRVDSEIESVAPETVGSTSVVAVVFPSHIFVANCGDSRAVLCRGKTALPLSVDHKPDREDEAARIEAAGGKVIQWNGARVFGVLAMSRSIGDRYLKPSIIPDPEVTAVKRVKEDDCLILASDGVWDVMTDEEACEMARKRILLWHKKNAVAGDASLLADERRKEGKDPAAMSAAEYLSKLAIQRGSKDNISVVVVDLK"}
{"Substitution": "H122F", "relative binding score": "-14.4%"}
{"Substitution": "L8T", "relative binding score": "-0.401%"}
{"Substitution": "E130N", "relative binding score": "25.8%"}
{"Substitution": "F47I", "relative binding score": "-0.473%"}
{"Substitution": "I133D", "relative binding score": "46.8%"}
{"Substitution": "C60H", "relative binding score": "3.93%"}
{"Substitution": "L91C", "relative binding score": "4.48%"}
{"Substitution": "N165R", "relative binding score": "10.4%"}
{"Substitution": "L8D", "relative binding score": "-3.94%"}
{"Substitution": "S150D", "relative binding score": "14.2%"}
{"Substitution": "Q2G", "relative binding score": "7.98%"}
{"Substitution": "H122K", "relative binding score": "-5.12%"}
{"Substitution": "H122R", "relative binding score": "2.06%"}
{"Substitution": "K116M", "relative binding score": "0.957%"}
{"Substitution": "W134K", "relative binding score": "5.67%"}
{"Substitution": "R99G", "relative binding score": "-3.99%"}
{"Substitution": "V136S", "relative binding score": "-4.71%"}
{"Substitution": "E139R", "relative binding score": "5.81%"}
{"Substitution": "S11A", "relative binding score": "42.4%"}
{"Substitution": "C25Y", "relative binding score": "-2.63%"}
{"Substitution": "L91S", "relative binding score": "1.19%"}
{"Substitution": "L93K", "relative binding score": "-0.961%"}
{"Substitution": "N177P", "relative binding score": "15%"}
{"data": "Study 3", "target": "Sal-like protein 4, full length isoform B (SALL4, Homo sapiens, UniProt Q9UJQ4-2, residues 1-616)", "technique": "universal PBM", "form": "double-stranded DNA, one strand shown", "matrix": "in vitro", "concentration": "not given", "setting": "8-mer, flanks averaged, mean of replicates", "direction": "higher = stronger binding"}
{"Strand": "ACAAGCGC", "E-score": -0.193}
{"Strand": "AGCCCCAG", "E-score": -0.294}
{"Strand": "CGCGGGAG", "E-score": -0.301}
{"Strand": "GCCGCAAA", "E-score": -0.126}
{"Strand": "ATTCTTGA", "E-score": 0.209}
{"Strand": "CTCTAACC", "E-score": -0.281}
{"Strand": "CCACACTA", "E-score": 0.123}
{"Strand": "GATTCGAA", "E-score": 0.103}
{"Strand": "CGCATGCC", "E-score": -0.102}
{"Strand": "GAAATCGA", "E-score": -0.0592}
{"Strand": "AGAAGCGA", "E-score": -0.0966}
{"Strand": "CTAGTTAA", "E-score": 0.212}
{"Strand": "TCGGCTAA", "E-score": -0.0885}
{"Strand": "ATGTAGAC", "E-score": 0.154}
{"Strand": "CAATTGGG", "E-score": -0.185}
{"Strand": "ACACACGG", "E-score": -0.279}
{"Strand": "CTGCTCGA", "E-score": -0.192}
{"Strand": "GGTTGGGA", "E-score": -0.213}
{"Strand": "AGGGGAGA", "E-score": -0.159}
{"Strand": "AACGAGAA", "E-score": 0.237}
{"Strand": "CAGAATGG", "E-score": -0.039}
{"Strand": "AGGTCGGC", "E-score": -0.114}
{"Strand": "TCTAAACA", "E-score": 0.195}
{"Strand": "GCTGGGCC", "E-score": -0.396}
{"Strand": "AGTACCCA", "E-score": 0.0222}
{"data": "Study 4", "target": "Centromere-binding protein 1, full length, His-tagged (CBF1, Saccharomyces cerevisiae, UniProt P17106, residues 1-351)", "technique": "competition protein-binding microarray", "form": "double-stranded DNA, one strand shown", "matrix": "in vitro", "concentration": "2 µM", "setting": "whole 60-bp probe, lowest competitor level", "with": "Pho4 competitor, 0.05 µM", "direction": "higher = stronger binding", "sequence of UniProt P17106 (whole entry, looked up)": "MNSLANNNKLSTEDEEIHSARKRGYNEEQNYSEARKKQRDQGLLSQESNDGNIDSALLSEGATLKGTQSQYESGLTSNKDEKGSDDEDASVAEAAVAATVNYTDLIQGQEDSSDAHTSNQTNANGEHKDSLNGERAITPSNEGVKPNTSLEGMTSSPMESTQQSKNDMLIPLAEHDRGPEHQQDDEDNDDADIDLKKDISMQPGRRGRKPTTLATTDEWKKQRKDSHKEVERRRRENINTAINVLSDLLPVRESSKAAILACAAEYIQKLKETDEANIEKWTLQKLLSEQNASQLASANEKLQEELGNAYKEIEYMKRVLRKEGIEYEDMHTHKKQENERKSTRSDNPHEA"}
{"Strand": "CTCGTAATCTGGTCCCACGTCTTGCACTATATGCAGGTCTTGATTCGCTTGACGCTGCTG", "fluorescence intensity [a.u.]": 60.1}
{"Strand": "CGTCCTAGTGATTTTCACGTGAAGTCCATGAGGAAGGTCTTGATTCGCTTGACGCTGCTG", "fluorescence intensity [a.u.]": 787}
{"Strand": "TATAAGTATCCTTCAGACGTGCAAATTCTTCAGGGCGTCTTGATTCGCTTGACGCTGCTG", "fluorescence intensity [a.u.]": 80.6}
{"Strand": "AGTAACCCTGCTTCACACATGAGAAACATTATCGCTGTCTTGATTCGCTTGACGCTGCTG", "fluorescence intensity [a.u.]": 74.3}
{"Strand": "GACCTAAGTCAGTCAAATTGTACTATCCCTGATCCTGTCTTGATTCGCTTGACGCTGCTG", "fluorescence intensity [a.u.]": 70}
{"Strand": "TGCGCAACAACTTGTAGCGTGGGTGTATGTCTAGAAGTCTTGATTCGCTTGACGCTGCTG", "fluorescence intensity [a.u.]": 71.3}
{"Strand": "CGCCCCCCAGCTCGGCACGCTGGTCAACACAGGCTGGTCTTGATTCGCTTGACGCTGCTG", "fluorescence intensity [a.u.]": 95.5}
{"Strand": "CATACCCAACCTTAGCACGTGTTTTAAGATATTTGTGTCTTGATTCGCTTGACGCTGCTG", "fluorescence intensity [a.u.]": 2250}
{"Strand": "CATACCCAACCTTGTTGGGTGGGTGAAGATATTTGTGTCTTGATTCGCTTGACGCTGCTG", "fluorescence intensity [a.u.]": 60.3}
{"Strand": "TATCGTCATATAAAAAACGTGCAAAGTATATGTAACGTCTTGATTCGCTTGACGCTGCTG", "fluorescence intensity [a.u.]": 354}
{"Strand": "AAAGTAGCATTCCGTTACGTGATGGGTACTTTAACCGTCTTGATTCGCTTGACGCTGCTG", "fluorescence intensity [a.u.]": 97.7}
{"Strand": "CTCCAGAAATCGGGCCACATGACAAAGCCCGTAGACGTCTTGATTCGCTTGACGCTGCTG", "fluorescence intensity [a.u.]": 221}
{"Strand": "GATCCCAGGGAGCGCCTCGTGCCCCAGTGACACACTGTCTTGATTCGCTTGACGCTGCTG", "fluorescence intensity [a.u.]": 84.9}
{"Strand": "GGAGTTGATGTGTCTAGTGTGACAGGTTCATTTGCCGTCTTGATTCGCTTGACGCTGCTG", "fluorescence intensity [a.u.]": 85.7}
{"Strand": "TGCGCAACAACTTGGTATGTGGGTGTATGTCTAGAAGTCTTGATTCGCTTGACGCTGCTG", "fluorescence intensity [a.u.]": 69.7}
{"Strand": "GGAAAGCAACGAGTGATCGTGACGGCATAATTGCCTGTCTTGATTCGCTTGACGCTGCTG", "fluorescence intensity [a.u.]": 101}
{"Strand": "TTACTATTTGTGTCCCACGTGCTTTATTGTCTTATGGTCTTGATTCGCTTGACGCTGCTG", "fluorescence intensity [a.u.]": 2610}
{"Strand": "GCCCGATCCTTTGGACACGTGCCGACAGGACTACTCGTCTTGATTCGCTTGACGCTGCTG", "fluorescence intensity [a.u.]": 2050}
{"Strand": "GGTTAGGTTGACCATCACGTGGAGGTCAGACATTATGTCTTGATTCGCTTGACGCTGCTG", "fluorescence intensity [a.u.]": 1760}
{"Strand": "CGTCCTAGCGATTAACACGTGTTTTCCATGAGGAAGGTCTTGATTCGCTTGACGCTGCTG", "fluorescence intensity [a.u.]": 2500}
{"Strand": "CCGCTCCCGGCTTGCCACGTGACAAGCCACAGTGTTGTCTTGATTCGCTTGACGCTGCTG", "fluorescence intensity [a.u.]": 5050}
{"Strand": "AAGCACTGCGGTAGGTGCATGACAGGAGGCCCCTAGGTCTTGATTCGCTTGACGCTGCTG", "fluorescence intensity [a.u.]": 59.6}
{"Strand": "TGAATTACTTCGCCCAACGTGTTGATGGCATGGGCAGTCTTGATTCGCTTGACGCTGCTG", "fluorescence intensity [a.u.]": 77.9}
{"Strand": "TCGTTTCCTAACTGGCACGTCACTTATAACGAGGTGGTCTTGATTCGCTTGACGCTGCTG", "fluorescence intensity [a.u.]": 74}
{"Strand": "TGGAACAGCAATGCCACCGTGATGGTCCTTGACCAGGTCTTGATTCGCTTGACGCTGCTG", "fluorescence intensity [a.u.]": 57.4}
{"data": "Single results of other studies"}
{"Molecule": "PhoQ, residues 284 288 289 292 302 303 SCCLKL", "target": "PhoP, residues 12 14 15 18 19 LYHSL (Escherichia coli, UniProt P23836)", "assay": "Sort-seq, refers to: YFP reporter", "test system": "E. coli", "setting": "PhoQ-PhoP variant library, with: 10 µM Mg2+", "how to read": "reference: high Mg2+ state, higher = stronger signaling", "endpoint": "fold induction", "value": 0.642}
{"note": "Some of these lines once more (study 3):"}
{"Strand": "AGGTCGGC", "E-score": -0.114}
{"Strand": "CTGCTCGA", "E-score": -0.192}
{"Strand": "GCTGGGCC", "E-score": -0.396}
{"Strand": "TCGGCTAA", "E-score": -0.0885}
{"Strand": "ATGTAGAC", "E-score": 0.154}
{"Strand": "CTCTAACC", "E-score": -0.281}
{"Strand": "AACGAGAA", "E-score": 0.237}
{"Strand": "GAAATCGA", "E-score": -0.0592}
{"Strand": "GGTTGGGA", "E-score": -0.213}
{"Strand": "AGCCCCAG", "E-score": -0.294}
{"Strand": "CCACACTA", "E-score": 0.123}
